Results of several laboratories.
Parts stem from different laboratories: compare values within a part only. Changes are numbered by the printed parent chain.

Block 1 — method: RNA Bind-n-Seq; molecule type: RNA; sample: in vitro; concentration: 1 µM; notes: whole 134-nt RNA, ends assumed; together with: 150 mM KCl; baseline: input library; direction: higher = stronger binding
Target: Ras GTPase-activating protein-binding protein 1, RRM domain (G3BP1, Homo sapiens, UniProt Q13283)
Sequence of UniProt Q13283 (whole entry, looked up): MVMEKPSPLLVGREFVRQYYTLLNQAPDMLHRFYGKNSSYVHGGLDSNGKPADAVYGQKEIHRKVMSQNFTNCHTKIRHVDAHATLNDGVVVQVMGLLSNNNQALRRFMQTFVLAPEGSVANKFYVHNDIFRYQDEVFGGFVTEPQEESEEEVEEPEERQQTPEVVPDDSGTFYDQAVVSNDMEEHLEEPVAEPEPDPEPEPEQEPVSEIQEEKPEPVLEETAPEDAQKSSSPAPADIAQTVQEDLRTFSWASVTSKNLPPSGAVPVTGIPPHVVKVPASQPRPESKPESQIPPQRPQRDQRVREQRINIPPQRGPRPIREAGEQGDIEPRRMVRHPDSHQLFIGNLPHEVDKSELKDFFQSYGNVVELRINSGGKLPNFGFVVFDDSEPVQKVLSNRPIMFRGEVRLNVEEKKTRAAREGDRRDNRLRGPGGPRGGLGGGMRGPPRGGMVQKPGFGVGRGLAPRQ
All sequences stand within: GGGAGUUCUACAGUCCGACGAUC … UGGAAUUCUCGGGUGUCAAGG
| Oligonucleotide | log2 enrichment |
| --- | --- |
| UGGGUGAAGAGGGACAGUUACCUUCCUGUGGGCAGUCAUAAUCUCAAGGCGGCCGCCAAGGCCAAGCUAGGCUAUGAUCCCGUGGAGCUA | -0.307 |
| GCAGGAAGUAAAAACAAAUGGAAAUGCUUCGGAUAGUUGCAGGGGUGGGGGUUGCUAAGGAAAGGGUGGGAUGGGAGUGGGUAAAGAGUU | 0.573 |
| AAGUCCUGUGCUACACAUCGUAUGUACCGAAUCGGGAAAAAAAGGGUGGGAAAGGGAAAGUAUUAUGUUACGCCGUUCGGAUCUGCACUU | 0.749 |
| UGUCUUUCCUGGUGACUAGGAUGUCGUCGGAGGAGGACAAGAGCGUGGAGCAGCCGCAGCCGCCGCCACCACCCCCCGAGGAGCCUGGAG | -0.541 |
| GCAGGAAGUAAAAACAAAUGGAAAUGCUUCGGAUAGUGGCAGGGGUGGGGGUUGCUAAGUAAAGGGUGGGAUGGGAGUGGGUAAAGAGUU | 1.27 |
| CUCAAGUCCUGUGCUACACAUCGUAUGUACCGAAUCGGAAAGGAAAGGUUUGGAAAGUAUUAUGUUACGCCGUUCGGAUCUGCACUUCCA | -0.215 |
| ACCAUGCAGGUGGGCAUCUUUGGGAAGUGGGGCAAGGGGGGGAUAGGGAGGGGGGUAACACUUUGGGAACCGGUGGUCCCAGGUCGUUUC | 0.624 |
| AAGUCCUGUGCUACACAUCGUAUGUACCGAAUCGGGUGGGAAAGGGAAAAAAAGGGAAAGUAUUAUGUUACGCCGUUCGGAUCUGCACUU | 0.382 |
| GCAGGAAGUAAAAACAAAUGGAAAUGCUUCCGAUAGUGGCAGGGGUGGGGGUUGCUAAGGAAAGGGUGGGAUGGGAGUGGGUAAAGAGUU | 1.34 |
| ACCAUGCAGGAGGGCAUCUUUGGGAAGUGGGGCAAGGGGGGGAUAGGGAGGGGGGUAACACUUUGGGAACAGGUGGUCCCAGGUCGUUUC | -0.566 |

Block 2 — target: UBE2I UBC core domain (UniProt P63279); method: yeast two-hybrid; sample: yeast; notes: mostly zero background; baseline: not given; direction: higher = stronger interaction
B1: SYTL4 RING domain (UniProt Q96C24); chain RGSQHYSDRTCARCQESLGRLSPKTNTCRGCNHLVCRDCRIQESNGTWRCKVCAKEIELKKAT
B2: ZMIZ2 RING domain (UniProt Q8NF64); chain GTIPGTPGPNGEDGVEQTAIKVSLKCPITFRRIQLPARGHDCRHIQCFDLESYLQLNCERGTWRCPVCNKTALLEGLEVDQYMLGILIYIQNSDYEEITIDPTCSWK
B3: SH3RF1 RING domain (UniProt Q7Z6J0); chain DESALLDLLECPVCLERLDASAKVLPCQHTFCKRCLLGIVGSRNELRCPECRTLVGSGVEEL
| Sequence | lacZ reporter activity |
| --- | --- |
| FDGDVDPDLKCALCHKVLEDPLTTPCGHVFCAGCVLPWVVQEGSCPARCRGRLSAKELN (PDZRN3 RING domain (UniProt Q9UPQ7)) | 0 |
| B1 (SYTL4 RING domain) | 0 |
| GSRLQEINDVCAICYHEFTTSARITPCNHYFHALCLRKWLYIQDTCPMCHQKVYIEDDIK (RNF139 RING domain (UniProt Q8WU17)) | 0 |
| B2 (ZMIZ2 RING domain) | 0 |
| B3 (SH3RF1 RING domain) | 0 |
| PEDRESLKSACVVCLSSFKSCVFLECGHVCSCTECYRALPEPKKCPICRQAITRVIPLY (MUL1 RING domain (UniProt Q969V5)) | 0 |
| NLSELTPYILCSICKGYLIDATTITECLHTFCKSCIVRHFYYSNRCPKCNIVVHQTQPLY (PCGF6 RING domain (UniProt Q9BYE7)) | 0 |
| GSDDEEIPFKCFICRQSFQNPVVTKCRHYFCESCALQHFRTTPRCYVCDQQTNGVFNPA (RNF113A RING domain (UniProt O15541)) | 0 |

Block 3 — target: CCND3, cyclin fold, Cln2 fusion (human); method: yeast growth competition, sequencing; sample: yeast; notes: weak parent motif; baseline: not given; direction: higher = stronger binding
Parent: RRM2 docking peptide (human); SKTARRIFQEPTE; partner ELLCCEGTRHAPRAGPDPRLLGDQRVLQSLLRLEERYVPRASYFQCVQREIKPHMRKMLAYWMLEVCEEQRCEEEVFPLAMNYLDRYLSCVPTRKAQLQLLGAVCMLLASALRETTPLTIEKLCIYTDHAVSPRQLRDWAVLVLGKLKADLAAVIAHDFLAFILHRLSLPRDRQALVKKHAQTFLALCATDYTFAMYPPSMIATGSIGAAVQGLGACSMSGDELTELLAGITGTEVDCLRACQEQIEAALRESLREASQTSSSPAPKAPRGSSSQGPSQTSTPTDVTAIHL
| Change | normalised enrichment score |
| --- | --- |
| I7A | 0.292 |
| Q9A | 0.446 |
| E13A | 0.389 |
| T3A | -0.163 |
| K2A | 0.246 |
| T12A | -0.0198 |

Block 4 — method: universal PBM; molecule type: double-stranded DNA, one strand shown; sample: in vitro; concentration: not given; direction: higher = stronger binding
Target: Sal-like protein 4, full length isoform B (SALL4, Homo sapiens, UniProt Q9UJQ4-2, residues 1-616)
Notes: 8-mer, flanks averaged, mean of replicates
Target sequence (chain): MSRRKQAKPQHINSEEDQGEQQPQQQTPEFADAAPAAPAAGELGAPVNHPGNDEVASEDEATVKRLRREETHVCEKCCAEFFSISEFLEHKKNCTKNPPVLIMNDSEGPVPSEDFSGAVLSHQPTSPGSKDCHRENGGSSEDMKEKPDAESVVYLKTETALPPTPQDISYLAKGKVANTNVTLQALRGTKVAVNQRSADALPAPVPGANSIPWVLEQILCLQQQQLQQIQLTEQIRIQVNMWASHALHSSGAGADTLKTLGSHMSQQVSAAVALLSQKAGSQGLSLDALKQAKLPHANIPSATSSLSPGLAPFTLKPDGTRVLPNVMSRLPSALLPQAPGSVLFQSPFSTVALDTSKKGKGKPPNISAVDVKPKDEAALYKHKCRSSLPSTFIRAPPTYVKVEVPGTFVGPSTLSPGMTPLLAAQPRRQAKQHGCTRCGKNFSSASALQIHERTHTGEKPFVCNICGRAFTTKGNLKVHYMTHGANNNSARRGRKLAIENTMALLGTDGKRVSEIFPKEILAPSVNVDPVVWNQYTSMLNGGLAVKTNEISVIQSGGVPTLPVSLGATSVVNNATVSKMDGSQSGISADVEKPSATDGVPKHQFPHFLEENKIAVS
| Oligonucleotide | E-score |
| --- | --- |
| CCACGGGG | -0.345 |
| ACTTTGTC | 0.0664 |
| ACGGCGTC | -0.251 |
| CAGCTCAA | -0.0873 |
| GTGACACA | 0.0704 |
| GGCATGAA | 0.0026 |
| TGAGAGAA | 0.126 |
| ACTCTAAT | 0.201 |
| GCCCCCAA | -0.0501 |
| ACACGTTG | 0.00118 |
| GGGCCAGA | -0.395 |
| AAGTAAGC | 0.0866 |
| CCCTCGCA | -0.217 |
| AACCGCAG | -0.236 |
| AACGCGGT | -0.0648 |
| GGTCGTAA | 0.128 |
| CTGAGACA | -0.104 |
| AAAAATGT | 0.22 |
| CGACGACA | -0.0862 |
| AACAACGA | 0.157 |
| GGATCATA | 0.155 |
| AATGCGAT | 0.196 |
| GCGGGTGA | -0.26 |
| CAAGGATC | 0.0477 |
| ACCTCGTC | -0.0732 |

Block 5 — target: FOSL1, bZIP domain (human); method: DHFR protein complementation; sample: yeast; baseline: wild-type JUN-FOS pair; direction: higher = stronger binding
Notes: single substitutions, most at no-binding floor
Parent: JUN, bZIP domain (human); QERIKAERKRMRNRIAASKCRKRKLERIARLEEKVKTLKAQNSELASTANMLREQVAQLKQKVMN; partner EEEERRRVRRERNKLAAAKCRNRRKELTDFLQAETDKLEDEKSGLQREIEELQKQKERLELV
| Change | binding fitness [natural log] |
| --- | --- |
| R30G | -0.314 |
| E33V | -0.779 |
| L38R | -1.39 |
| E33R | -0.586 |
| V56Q | -1.33 |
| L59C | -1.27 |
| N42I | -0.306 |
| N42G | -1.37 |
| A46Q | -0.387 |
| V56W | -1.41 |
| Q41I | -0.412 |
| T37D | -0.386 |
| T37A | -0.305 |
| K39H | -0.771 |
| Q55W | -1.05 |
| N42Q | -1.22 |
| A29W | -0.668 |
